Results gathered from unrelated publications.
Numbered parts are unrelated; each lists some results of a single study. Several values in a cell are separate wells, animals, samples, runs or records.
UniProt P21709, sequence (whole entry, looked up): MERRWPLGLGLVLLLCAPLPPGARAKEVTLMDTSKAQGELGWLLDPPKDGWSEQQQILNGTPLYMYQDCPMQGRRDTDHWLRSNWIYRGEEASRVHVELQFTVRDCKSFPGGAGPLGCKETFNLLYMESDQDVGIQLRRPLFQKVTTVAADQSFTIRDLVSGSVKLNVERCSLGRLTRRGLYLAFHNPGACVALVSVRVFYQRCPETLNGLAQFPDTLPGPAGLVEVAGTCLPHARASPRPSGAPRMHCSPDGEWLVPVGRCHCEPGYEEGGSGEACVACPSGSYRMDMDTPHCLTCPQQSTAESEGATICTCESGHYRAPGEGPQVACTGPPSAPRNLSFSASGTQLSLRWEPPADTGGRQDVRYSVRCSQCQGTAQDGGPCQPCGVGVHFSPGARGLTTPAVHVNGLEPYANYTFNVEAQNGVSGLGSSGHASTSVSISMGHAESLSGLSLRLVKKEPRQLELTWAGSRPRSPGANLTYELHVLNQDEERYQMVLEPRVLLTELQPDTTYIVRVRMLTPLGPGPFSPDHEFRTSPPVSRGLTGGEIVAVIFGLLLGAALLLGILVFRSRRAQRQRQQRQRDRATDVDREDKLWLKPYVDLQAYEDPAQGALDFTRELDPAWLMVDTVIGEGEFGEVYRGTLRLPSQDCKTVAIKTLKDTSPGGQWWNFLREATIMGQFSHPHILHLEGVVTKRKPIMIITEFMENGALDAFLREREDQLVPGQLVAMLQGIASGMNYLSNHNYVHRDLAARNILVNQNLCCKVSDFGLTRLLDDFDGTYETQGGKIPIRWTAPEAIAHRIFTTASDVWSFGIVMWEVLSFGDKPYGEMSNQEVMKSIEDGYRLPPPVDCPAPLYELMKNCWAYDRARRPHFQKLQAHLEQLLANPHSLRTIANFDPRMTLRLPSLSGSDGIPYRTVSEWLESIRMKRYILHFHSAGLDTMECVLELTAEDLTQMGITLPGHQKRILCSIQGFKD
UniProt P50750, sequence (whole entry, looked up): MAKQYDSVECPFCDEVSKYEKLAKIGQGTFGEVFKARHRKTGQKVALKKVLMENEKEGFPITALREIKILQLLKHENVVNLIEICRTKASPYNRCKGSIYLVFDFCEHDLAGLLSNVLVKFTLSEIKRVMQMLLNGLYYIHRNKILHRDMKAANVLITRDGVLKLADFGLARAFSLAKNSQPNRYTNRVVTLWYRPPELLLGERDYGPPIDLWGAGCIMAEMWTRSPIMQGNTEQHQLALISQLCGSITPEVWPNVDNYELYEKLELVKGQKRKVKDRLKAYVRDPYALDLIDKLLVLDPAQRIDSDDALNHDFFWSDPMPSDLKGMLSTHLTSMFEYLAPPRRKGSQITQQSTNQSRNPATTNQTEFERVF
UniProt Q86Z02, sequence (whole entry, looked up): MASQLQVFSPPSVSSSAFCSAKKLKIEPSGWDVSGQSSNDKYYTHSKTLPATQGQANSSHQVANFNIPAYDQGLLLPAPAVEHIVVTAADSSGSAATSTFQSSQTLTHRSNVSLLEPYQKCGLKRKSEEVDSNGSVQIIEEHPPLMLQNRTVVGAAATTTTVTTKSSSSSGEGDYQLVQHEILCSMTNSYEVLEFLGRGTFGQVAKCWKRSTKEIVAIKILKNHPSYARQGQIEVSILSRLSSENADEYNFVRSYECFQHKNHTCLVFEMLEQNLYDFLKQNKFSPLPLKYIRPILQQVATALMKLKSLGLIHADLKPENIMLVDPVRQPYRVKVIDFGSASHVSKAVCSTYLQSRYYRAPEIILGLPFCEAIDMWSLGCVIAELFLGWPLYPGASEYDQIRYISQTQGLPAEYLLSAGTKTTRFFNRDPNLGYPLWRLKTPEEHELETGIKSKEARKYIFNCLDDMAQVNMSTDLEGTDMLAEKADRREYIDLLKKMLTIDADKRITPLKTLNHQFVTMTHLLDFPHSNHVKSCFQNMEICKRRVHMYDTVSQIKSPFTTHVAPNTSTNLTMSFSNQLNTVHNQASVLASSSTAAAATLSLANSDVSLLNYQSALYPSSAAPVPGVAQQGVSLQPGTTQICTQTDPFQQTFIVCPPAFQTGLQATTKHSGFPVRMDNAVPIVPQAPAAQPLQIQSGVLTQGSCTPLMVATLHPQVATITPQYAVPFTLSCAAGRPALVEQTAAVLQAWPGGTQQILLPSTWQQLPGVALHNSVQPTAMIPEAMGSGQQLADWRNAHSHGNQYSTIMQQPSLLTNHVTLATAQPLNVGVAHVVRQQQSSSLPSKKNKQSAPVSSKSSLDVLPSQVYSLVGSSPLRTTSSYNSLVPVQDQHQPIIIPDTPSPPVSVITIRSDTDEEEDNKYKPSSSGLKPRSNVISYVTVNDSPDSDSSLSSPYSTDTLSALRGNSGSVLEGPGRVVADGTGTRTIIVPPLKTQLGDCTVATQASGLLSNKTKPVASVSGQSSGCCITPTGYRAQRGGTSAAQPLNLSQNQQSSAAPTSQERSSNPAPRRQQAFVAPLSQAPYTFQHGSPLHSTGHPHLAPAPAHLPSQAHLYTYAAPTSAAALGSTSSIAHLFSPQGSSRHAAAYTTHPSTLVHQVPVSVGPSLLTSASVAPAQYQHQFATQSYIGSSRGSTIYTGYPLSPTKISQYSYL
UniProt Q9NY57, sequence (whole entry, looked up): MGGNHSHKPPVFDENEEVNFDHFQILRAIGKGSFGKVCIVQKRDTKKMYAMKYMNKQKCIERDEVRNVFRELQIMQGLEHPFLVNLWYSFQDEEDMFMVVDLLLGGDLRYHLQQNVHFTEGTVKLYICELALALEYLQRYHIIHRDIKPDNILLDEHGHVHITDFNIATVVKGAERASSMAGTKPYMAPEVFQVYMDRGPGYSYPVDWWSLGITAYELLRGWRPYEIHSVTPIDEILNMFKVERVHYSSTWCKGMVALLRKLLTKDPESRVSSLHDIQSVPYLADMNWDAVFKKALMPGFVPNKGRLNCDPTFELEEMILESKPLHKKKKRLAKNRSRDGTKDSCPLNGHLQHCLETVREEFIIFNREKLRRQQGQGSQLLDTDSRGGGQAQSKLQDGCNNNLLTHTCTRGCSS
UniProt P07947, sequence (whole entry, looked up): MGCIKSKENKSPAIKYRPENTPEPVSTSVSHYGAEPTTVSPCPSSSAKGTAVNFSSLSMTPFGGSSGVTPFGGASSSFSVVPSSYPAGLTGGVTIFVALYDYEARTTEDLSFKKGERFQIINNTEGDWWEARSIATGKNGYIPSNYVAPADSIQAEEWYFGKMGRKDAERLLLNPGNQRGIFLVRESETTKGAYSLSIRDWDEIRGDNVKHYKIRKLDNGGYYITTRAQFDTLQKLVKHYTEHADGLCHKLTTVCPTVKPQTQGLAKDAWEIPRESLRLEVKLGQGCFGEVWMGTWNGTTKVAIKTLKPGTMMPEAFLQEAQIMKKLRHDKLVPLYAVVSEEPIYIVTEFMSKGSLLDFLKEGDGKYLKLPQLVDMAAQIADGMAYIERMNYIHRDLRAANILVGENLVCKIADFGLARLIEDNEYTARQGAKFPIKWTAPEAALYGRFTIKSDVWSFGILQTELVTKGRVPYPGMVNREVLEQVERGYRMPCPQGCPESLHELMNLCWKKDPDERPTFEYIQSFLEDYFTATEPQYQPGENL

Study 1
Structure (SMILES): CCN1/C(=C/C=C2\CCCC(/C=C/C3=[N+](CC)c4ccccc4C3(C)C)=C2NCCCCCCCCN2CCC(Nc3nc4ccccc4n3Cc3ccc(F)cc3)CC2)C(C)(C)c2ccccc21
Cell line: U-87 MG
Tested at: concentration not given
Baseline: DMSO
item | log2 fold change
SEMA7A mRNA | -1.3
FNIP2 mRNA | 1.02
FAM72C mRNA | -2.12
ALDH1B1 mRNA | -1.54
GPRIN3 mRNA | -2.07
PDLIM2 mRNA | -1.22
BEST1 mRNA | 1.25
AQP9 mRNA | -1.53
CNN1 mRNA | -1.8
CCDC59 mRNA | 0.99
GARS1 mRNA | 1.34
G0S2 mRNA | -2.14
GORAB mRNA | 1.37
KNSTRN mRNA | -1.03
MGAT5B mRNA | -1.93
ARMCX4 mRNA | -1.31

Study 2
SMILES: C[C@@H]1CN(c2ccc(-c3cc(C(=O)NCCOCCOCCOCCOCCNC(=O)Cn4cc(-c5[nH]cc(C(=O)N[C@@H](CC(N)=O)c6ccc(F)c(Cl)c6)c5-c5ccc(Cl)cc5F)cn4)ccc3F)cc2NC(=O)c2c[nH]c(=O)cc2C(F)(F)F)C[C@H](C)N1C
Read-out: thermal unfolding
Method: differential scanning fluorimetry
Tested at: 5.5 µM
Reading: higher = more unfolded
DCAF1: DDB1- and CUL4-associated factor 1 (DCAF1, Homo sapiens, UniProt Q9Y4B6)
UniProt Q9Y4B6, sequence (whole entry, looked up): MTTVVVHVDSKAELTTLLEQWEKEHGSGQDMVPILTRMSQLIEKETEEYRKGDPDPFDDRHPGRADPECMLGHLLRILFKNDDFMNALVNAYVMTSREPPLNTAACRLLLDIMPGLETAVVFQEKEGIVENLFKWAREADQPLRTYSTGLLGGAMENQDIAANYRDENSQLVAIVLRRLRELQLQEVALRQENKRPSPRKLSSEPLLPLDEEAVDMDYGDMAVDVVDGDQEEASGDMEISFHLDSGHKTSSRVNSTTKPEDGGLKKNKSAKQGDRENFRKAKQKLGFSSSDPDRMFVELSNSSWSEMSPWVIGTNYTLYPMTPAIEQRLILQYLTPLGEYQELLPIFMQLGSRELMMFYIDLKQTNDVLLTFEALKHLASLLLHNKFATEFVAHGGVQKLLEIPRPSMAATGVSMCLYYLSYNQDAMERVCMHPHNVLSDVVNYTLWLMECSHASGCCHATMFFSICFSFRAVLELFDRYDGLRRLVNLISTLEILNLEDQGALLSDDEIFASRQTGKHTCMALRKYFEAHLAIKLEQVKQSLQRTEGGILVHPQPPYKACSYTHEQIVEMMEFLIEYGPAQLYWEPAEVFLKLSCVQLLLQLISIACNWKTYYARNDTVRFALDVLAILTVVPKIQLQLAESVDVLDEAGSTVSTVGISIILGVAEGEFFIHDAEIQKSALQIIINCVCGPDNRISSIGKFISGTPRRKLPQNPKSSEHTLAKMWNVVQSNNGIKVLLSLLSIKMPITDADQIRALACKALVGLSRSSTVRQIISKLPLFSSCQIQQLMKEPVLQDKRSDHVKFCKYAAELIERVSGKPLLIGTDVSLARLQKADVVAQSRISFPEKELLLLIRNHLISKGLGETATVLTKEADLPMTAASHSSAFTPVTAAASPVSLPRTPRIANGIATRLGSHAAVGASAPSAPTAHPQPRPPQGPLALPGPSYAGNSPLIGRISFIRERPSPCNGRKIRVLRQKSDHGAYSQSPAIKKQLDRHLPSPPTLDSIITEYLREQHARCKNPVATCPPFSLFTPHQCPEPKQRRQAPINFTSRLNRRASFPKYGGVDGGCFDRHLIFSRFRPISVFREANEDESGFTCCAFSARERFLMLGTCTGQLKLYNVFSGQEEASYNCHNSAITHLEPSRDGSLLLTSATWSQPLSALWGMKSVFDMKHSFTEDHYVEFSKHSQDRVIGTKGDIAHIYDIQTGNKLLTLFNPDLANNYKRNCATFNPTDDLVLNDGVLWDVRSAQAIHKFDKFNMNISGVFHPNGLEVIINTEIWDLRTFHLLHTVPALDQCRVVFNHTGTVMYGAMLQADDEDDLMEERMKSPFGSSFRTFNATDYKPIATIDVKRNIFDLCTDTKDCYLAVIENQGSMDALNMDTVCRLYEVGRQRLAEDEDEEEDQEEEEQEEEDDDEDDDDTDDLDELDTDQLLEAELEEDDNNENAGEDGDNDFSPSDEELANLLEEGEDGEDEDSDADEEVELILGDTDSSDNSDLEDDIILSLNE
WDR5: WD repeat-containing protein 5 (WDR5, Homo sapiens, UniProt P61964)
target | temperature | SYPRO Orange fluorescence [a.u.]
DCAF1 | 81.81 °C | 42700
WDR5 | 63.01 °C | 8810
DCAF1 | 46 °C | 12700
DCAF1 | 61.01 °C | 43100
WDR5 | 57.41 °C | 12300
DCAF1 | 71.81 °C | 52500
WDR5 | 28.4 °C | 14900
DCAF1 | 72.41 °C | 52000
DCAF1 | 86.41 °C | 38400
WDR5 | 85.21 °C | 39800
DCAF1 | 75.21 °C | 49000

Study 3
Compound: CC[C@@]1(c2cccc(C(F)(F)F)c2)C2=C(Nc3n[nH]cc31)[C@H](F)C(C)(C)CC2=O (single isomer, unassigned)
Tested at: 1 µM
target | read-out | method | baseline | remaining binding
Ephrin type-A receptor 1 (EPHA1, Homo sapiens, UniProt P21709) | binding | competition with immobilised ligand |  | 100%
Tyrosine-protein kinase JAK1, JH1 kinase domain (JAK1, Homo sapiens, UniProt P23458) | kinase binding | KINOMEscan | DMSO control | 100%
Tyrosine-protein kinase SYK (SYK, Homo sapiens, UniProt P43405) | kinase binding | KINOMEscan | DMSO control | 100%
Tyrosine-protein kinase Blk (BLK, Homo sapiens, UniProt P51451) | binding | competition with immobilised ligand |  | 99%
Phosphatidylinositol 4,5-bisphosphate 3-kinase catalytic subunit alpha isoform (PIK3CA, Homo sapiens, UniProt P42336, M1043I) | binding | competition with immobilised ligand |  | 98%
MAP kinase-interacting serine/threonine-protein kinase 2 (MKNK2, Homo sapiens, UniProt Q9HBH9) | kinase binding | KINOMEscan | DMSO control | 100%
Insulin-like growth factor 1 receptor (IGF1R, Homo sapiens, UniProt P08069) | binding | competition with immobilised ligand |  | 75%
Homeodomain-interacting protein kinase 1 (HIPK1, Homo sapiens, UniProt Q86Z02) | binding | competition with immobilised ligand |  | 73%
cAMP-dependent protein kinase catalytic subunit PRKX (PRKX, Homo sapiens, UniProt P51817) | binding | competition with immobilised ligand |  | 83%
Bone morphogenetic protein receptor type-2 (BMPR2, Homo sapiens, UniProt Q13873) | binding | competition with immobilised ligand |  | 89%
Tyrosine-protein kinase ABL2 (ABL2, Homo sapiens, UniProt P42684) | kinase binding | KINOMEscan | DMSO control | 89%
Mitogen-activated protein kinase 15 (MAPK15, Homo sapiens, UniProt Q8TD08) | binding | competition with immobilised ligand |  | 96%
Tyrosine-protein kinase Yes (YES1, Homo sapiens, UniProt P07947) | kinase binding | KINOMEscan | DMSO control | 95%
Cyclin-dependent kinase 9 (CDK9, Homo sapiens, UniProt P50750) | binding | competition with immobilised ligand |  | 100%
Casein kinase II subunit alpha (CSNK2A1, Homo sapiens, UniProt P68400) | binding | competition with immobilised ligand |  | 100%
Macrophage colony-stimulating factor 1 receptor (CSF1R, Homo sapiens, UniProt P07333) | binding | competition with immobilised ligand |  | 100%
TRAF2 and NCK-interacting protein kinase (TNIK, Homo sapiens, UniProt Q9UKE5) | kinase binding | KINOMEscan | DMSO control | 92%
Tyrosine-protein kinase ABL1, phosphorylated (ABL1, Homo sapiens, UniProt P00519, H396P) | kinase binding | KINOMEscan | DMSO control | 72%
Serine/threonine-protein kinase 32B (STK32B, Homo sapiens, UniProt Q9NY57) | binding | competition with immobilised ligand |  | 88%

Study 4
SMILES: COCC1CC2C(CCC3(C)C(O)CCC23)c2ccc(O)cc21 (stereo not drawn)
Method: DNA microarray
Baseline: untreated cells
cell line | item | tested at | notes | mRNA level ratio
A549 | IL20RA | 100 µM |  | 12.2
A549 | MCM7 | 100 µM |  | 0.602
PANC-1 | GAPDH | concentration not given | lower dose arm | 1.37 and 1.4 and 1.35 and 1.34
PANC-1 | GADD45A | concentration not given | higher dose arm | 1.28
PANC-1 | CCL22 | concentration not given | lower dose arm | 1
PANC-1 | ADAMTS8 | concentration not given | higher dose arm | 0.808
PANC-1 | ADAMTS8 | concentration not given | lower dose arm | 1
PANC-1 | KIF20A | concentration not given | higher dose arm | 0.282 and 0.268 and 0.271 and 0.277
PANC-1 | GTSE1 | concentration not given | higher dose arm | 0.419
A549 | CDCA8 | 100 µM |  | 0.511
SK-OV-3 | CDC25B | concentration not given | higher dose arm | 1.21
A549 | MCM6 | 100 µM |  | 0.674
PANC-1 | ISG20L1 | concentration not given | higher dose arm | 0.819
SK-OV-3 | RFC3 | concentration not given | lower dose arm | 1.07
A549 | CALR3 | 100 µM |  | 1.97
A549 | CDC25B | 50 µM |  | 1.2
PANC-1 | CCL22 | concentration not given | higher dose arm | 1
SK-OV-3 | AURKA | concentration not given | lower dose arm | 0.872

Study 5
Cell line: MDA-MB-468
Read-out: cell viability
Method: CellCounting-Lite
Tested at: 74.07 nM
Temperature: 37 °C
Reading: higher = more viable cells
SMILES | luminescence signal
CCn1cnc2c(NCc3nc4cc(F)c(F)cc4[nH]3)nc(N3CCn4ncnc4C3)nc21 | 225000 a.u. and 275000 a.u. and 241000 a.u.
CCn1cnc2c(NCc3nc4cc(Cl)c(Cl)cc4[nH]3)nc(N3CCN(C(=O)c4ccccc4)CC3)nc21 | 70000 a.u. and 85200 a.u. and 91000 a.u.
CCCCOc1nc(NCc2nc3cc(Cl)c(Cl)cc3[nH]2)c2ncn(CC)c2n1 | 422000 a.u. and 333000 a.u. and 395000 a.u.
Cn1cc(-n2cnc3c(NCc4nc5cc(Cl)c(Cl)cc5[nH]4)nc(N4CCNCC4)nc32)cn1 | 77600 a.u. and 65700 a.u. and 75900 a.u.
CCn1cnc2c(NCc3nc4cc(Cl)c(Cl)cc4[nH]3)nc(N3CCN(Cc4ccncc4)CC3)nc21 | 116000 a.u. and 128000 a.u. and 102000 a.u.
CCn1cnc2c(NCc3nc4cc(Cl)c(Cl)cc4[nH]3)nc(N3CCN(c4ccccn4)CC3)nc21 | 564000 a.u. and 439000 a.u. and 445000 a.u.
CCn1cnc2c(NCc3nc4cc(Cl)c(Cl)cc4[nH]3)nc(N3CCC(NC(C)=O)CC3)nc21 | 249000 a.u. and 241000 a.u. and 256000 a.u.
CCn1cnc2c(NCc3nc4cc(Cl)c(Cl)cc4[nH]3)nc(N3CCN(C(=O)[C@H](C)NC(C)=O)CC3)nc21 | 93400 a.u. and 113000 a.u. and 99800 a.u.
CCn1cnc2c(NCc3nc4cc(Cl)c(Cl)cc4[nH]3)nc(N3CCN(S(C)(=O)=O)CC3)nc21 | 89300 a.u. and 80500 a.u. and 69900 a.u.
CCn1cnc2c(NCc3nc4cc(Cl)c(Cl)cc4[nH]3)nc(N3CCn4ncnc4C3)nc21 | 33800 a.u. and 47900 a.u. and 40200 a.u.
CCn1cnc2c(NCc3nc4cc(Cl)c(Cl)cc4[nH]3)nc(N3CCN(C(=O)c4cccnc4)CC3)nc21 | 36300 a.u. and 33800 a.u. and 37900 a.u.
CCn1cnc2c(NCc3nc4cc(Cl)c(Cl)cc4[nH]3)nc(N3CCN(C(=O)c4ccccn4)CC3)nc21 | 52700 a.u. and 34900 a.u. and 27800 a.u.
CC(=O)N1CCN(c2nc(NCc3nc4cc(Cl)c(Cl)cc4[nH]3)c3ncn(C(C)C)c3n2)CC1 | 473000 a.u. and 445000 a.u. and 502000 a.u.
CCn1cnc2c(NCc3nc4cc(Cl)c(Cl)cc4[nH]3)nc(N3CCN(C(C)=O)CC3)nc21 | 38100 a.u. and 31800 a.u. and 37700 a.u.
CC(=O)N1CCN(c2nc(NCc3nc4cc(Cl)c(Cl)cc4[nH]3)c3ncn(C)c3n2)CC1 | 279000 a.u. and 226000 a.u.
CCn1cnc2c(NCc3nc4ccc(F)c(F)c4[nH]3)nc(N3CCn4ncnc4C3)nc21 | 174000 a.u. and 169000 a.u. and 168000 a.u.
CC(=O)N1CCN(c2nc(NCc3nc4cc(Cl)c(Cl)cc4[nH]3)c3ncn(-c4cnn(C)c4)c3n2)CC1 | 116000 a.u. and 94900 a.u. and 122000 a.u.
CCn1cnc2c(NCc3nc4cc(Cl)c(Cl)cc4[nH]3)nc(N3CCN(C(=O)c4ccncc4)CC3)nc21 | 39100 a.u. and 38300 a.u. and 28900 a.u.

Mixed results
Compound | target or system | test | system | setting | how to read | measurement | result
Cc1ncsc1-c1ccc(C2(NC(=O)C3CC(O)CN3C(=O)C(NC(=O)c3ccc(COc4c(-c5c(C)c(F)cc6[nH]ncc56)c(C5CC5)cc5c(N6CC7CC6CN7)nc(OC6CCOCC6)nc45)cc3)C(C)(C)C)CC2)cc1 (stereo not drawn) | AsPC-1 | in-cell ELISA |  | 3 nM, individual replicates |  | phospho-ERK1/2 level | 89.8% and 92.8% and 98.1% and 99.4% and 103%
Cc1nc(C)c(C=[N+]([O-])C(C)(C)C)nc1C |  | immunofluorescence, item: 3-nitrotyrosine | mouse, MPTP model, substantia nigra | 30 mg/kg | baseline: sham mice | fluorescence intensity | 215%
Cc1ncsc1-c1ccc(C(CO)NC(=O)C2CC(O)CN2C(=O)C(C(C)C)n2cc(-c3ccc(COc4c(-c5c(C)c(F)cc6[nH]ncc56)c(C5CC5)cc5c(N6CC7CC6CN7)nc(OC6CCOCC6)nc45)cc3)nn2)cc1 (stereo not drawn) | AsPC-1 | in-cell ELISA, item: phospho-ERK1/2 |  | 10 nM |  | ERK1/2 phosphorylation | 62.2% and 52.3% and 56.9%
Cc1ncsc1-c1ccc(C(CO)NC(=O)C2CC(O)CN2C(=O)C(NC(=O)c2ccc(COc3c(-c4c(C)c(F)cc5[nH]ncc45)c(C4CC4)cc4c(N5CC6CC5CN6)nc(OC5CCOCC5)nc34)cc2)C(C)C)cc1 (stereo not drawn) | von Hippel-Lindau disease tumor suppressor, with Elongin B/C (VHL, Homo sapiens, UniProt P40337) | SPR, single-cycle | immobilized VCB complex | binary, geometric mean |  | Kd | 113 nM
Cc1ncsc1-c1ccc(C2(NC(=O)C3CC(O)CN3C(=O)C(NC(=O)c3ccc(COc4c(-c5c(C)c(F)cc6[nH]ncc56)c(C5CC5)cc5c(N6CC7CC6CN7)nc(OC6CCOCC6)nc45)cc3)C(C)C)CC2)cc1 (stereo not drawn) | AsPC-1 | in-cell ELISA |  | 1 nM, individual replicates |  | phospho-ERK1/2 level | 104% and 101% and 88.8% and 97.4% and 99.7% and 89.9%

For quick reference, copied from above (study 3):
target | read-out | method | baseline | remaining binding
Tyrosine-protein kinase ABL2 (ABL2, Homo sapiens, UniProt P42684) | kinase binding | KINOMEscan | DMSO control | 89%
Tyrosine-protein kinase SYK (SYK, Homo sapiens, UniProt P43405) | kinase binding | KINOMEscan | DMSO control | 100%
Casein kinase II subunit alpha (CSNK2A1, Homo sapiens, UniProt P68400) | binding | competition with immobilised ligand |  | 100%
Macrophage colony-stimulating factor 1 receptor (CSF1R, Homo sapiens, UniProt P07333) | binding | competition with immobilised ligand |  | 100%
Tyrosine-protein kinase ABL1, phosphorylated (ABL1, Homo sapiens, UniProt P00519, H396P) | kinase binding | KINOMEscan | DMSO control | 72%
